# Results of several laboratories.
# Values joined by “and” are separate records of one study, mostly repeats; a detail may differ. ± gives the spread as reported.
SMILES,target or system,assay,test system,conditions,measurement,value
O=C(O)/C=C\c1ccc2occc2c1O[C@@H]1O[C@H](CO)[C@@H](O)[C@H](O)[C@H]1O,,post-procedure stability,rat plasma,"1000 ng/mL, 3 h, room temperature",accuracy,112%
CC(C)=CCC/C(C)=C\CCn1cc(CC(C)(P(=O)(O)O)P(=O)(O)O)nn1,,PAMPA,phosphate buffer,"5 µg/mL, 5 h, room temperature",Papp,0.054 ± 0.006 ×10⁻⁶ cm/s
CC[C@H](C)[C@H](NC(=O)[C@H](CCCCN)NC(=O)CNC(=O)[C@H](CC(C)C)NC(=O)[C@H](Cc1ccccc1)NC(=O)[C@H](CCCCN)NC(=O)[C@H](CO)NC(=O)[C@H](Cc1ccccc1)NC(=O)[C@H](Cc1c[nH]c2ccccc12)NC(=O)[C@H](CCC(N)=O)NC(=O)[C@@H](NC(=O)[C@H](Cc1ccccc1)NC(=O)CCCCCNC(=O)CN1CCN(CC(=O)O)CCN(CC(=O)O)CCN(CC(=O)O)CC1)C(C)C)C(=O)N[C@@H](CCC(=O)O)C(=O)N1CCC[C@H]1C(=O)N[C@H](CC(=O)O)C(=O)N[C@H](C(=O)N[C@@H](CO)C(=O)N[C@@H](CCC(N)=O)C(=O)N[C@H](C(=O)N[C@@H](CCC(N)=O)C(=O)N[C@@H](CC(=O)O)C(=O)N1CCC[C@H]1C(=O)N[C@@H](CC(N)=O)C(=O)N[C@@H](CC(=O)O)C(=O)N[C@@H](CCC(N)=O)C(=O)N[C@@H](Cc1ccc(O)cc1)C(=O)N[C@@H](CCC(=O)O)C(=O)N1CCC[C@H]1C(=O)N[C@@H](Cc1ccccc1)C(=O)O)C(C)C)C(C)C [copper-64 labelled],,,"female mice, EMT6 tumour-bearing, tumor","2 h, uncleavable control tracer, checkpoint inhibitor-treated",tissue uptake,1.35 ± 0.21 %ID/g
C[C@H](O)[C@@H](NC(=O)[C@H]1CCCN1C(=O)[C@@H](CCCCN)NC(=O)[C@@H](CO)NC(=O)[C@@H](Cc1ccc(O)cc1)NC(=O)[C@@H](CC(N)=O)NC(=O)CCOCCOCCOCCNC(=O)CN1CCN(CC(=O)O)CCN(CC(=O)O)CCN(CC(=O)O)CC1)C(=O)N[C@H](CC(=O)O)C(=O)N[C@H](CCCNC(=N)N)C(=O)N[C@H](CCC(N)=O)C(=O)N[C@H](Cc1ccc(O)cc1)C(=O)N[C@H](Cc1c[nH]cn1)C(=O)N[C@H](Cc1ccccc1)C(N)=O [copper-64 labelled],,,"C57BL/6J mice, thymus","intravenous, 1.85 MBq, 1.333 h, radiolabelled",tissue uptake,0.15 ± 0.01 %ID/g
CC[C@H](C)[C@H](NC(=O)[C@H](C)NC(=O)[C@H](C)NC(=O)[C@H](CCC(N)=O)NC(=O)CNC(=O)[C@H](CC(C)C)NC(=O)[C@H](Cc1c[nH]cn1)NC(=O)[C@H](CCCCN)NC(=O)[C@H](C)NC(=O)CNC(=O)[C@H](CCCCN)NC(=O)[C@H](CCCNC(=N)N)NC(=O)[C@H](CC(C)C)NC(=O)[C@H](Cc1c[nH]c2ccccc12)NC(=O)[C@H](CCCCN)NC(=O)[C@H](CCCCN)NC(=O)[C@H](Cc1c[nH]c2ccccc12)NC(=O)CN)C(=O)N[C@@H](CCCCN)C(=O)NCC(=O)N[C@@H](CC(C)C)C(=O)N[C@@H](C)C(=O)N[C@@H](CO)C(=O)O,,,"zebrafish embryos 4 hpf, E3 medium",1 h,acute toxic concentration,5 µM
CC(C)[C@H](NC(=O)[C@@H](NC(=O)[C@H](CCCNC(=N)N)NC(=O)[C@H](CCCNC(=N)N)NC(=O)[C@H](CCCNC(=N)N)NC(=O)[C@H](CCC(N)=O)NC(=O)[C@H](CCCNC(=N)N)NC(=O)[C@H](CCCNC(=N)N)NC(=O)[C@H](CCCCN)NC(=O)[C@H](CCCCN)NC(=O)[C@H](CCCNC(=N)N)NC(=O)CN)[C@@H](C)O)C(=O)N[C@H](C(=O)N[C@@H](CO)C(=O)N1CCC[C@H]1C(=O)O)[C@@H](C)O,,,"ICR mice, male, brain","intranasal, 20 mg/kg daily, 4 weeks",organ weight,0.547 ± 0.051 g
Cc1ccc(OCCN(C)C)cc1C(=O)N[C@H](C)c1cc(-c2ccc(CNC3CCCC3)s2)nc2ccccc12,Vero E6,,,125 µM,viability,0% and 2.28%
CC1(C)C(=O)N(c2ccc(C#N)c(C(F)(F)F)c2)C(=S)N1c1ccc(C(N)=O)c(F)c1,,,"human, male, plasma","oral, 80 mg, single dose, fasting",AUC(0-t),147 ± 43.1 µg·h/mL
O=C1NC2(CC2)COc2ncc(F)cc2[C@H]2COCCN2c2ccn3ncc1c3n2,,,"Sprague-Dawley rat, female, kidneys","oral, 20 mg/kg/day, 4 weeks",organ weight,2.12 ± 0.235 g
Cc1ccc(OC[C@@H]2CCN2C)cc1C(=O)N[C@H](C)c1cc(-c2cnn(C)c2)nc2ccccc12,African green monkey cells,,,125 µM,viability,44.6%
N#[11C]c1ccc(-c2csc(NN=C3CCCC3)n2)cc1,,,"C57BL/6 mice, male, bone","intravenous, 3 MBq, 1 min",radioactivity uptake,1.56 ± 0.39 %ID/g
[2H]C([2H])([18F])[C@]([2H])(N)C(=O)O,,PET,athymic nude mouse,90 min,muscle uptake,0.65 ± 0.23 %ID/cc
COc1cnc2cccc(N3CCc4c(cc(Cn5ccnc5)cc4-c4cn(C)nc4C(F)(F)F)C3=O)c2c1,,,CD-1 mice,"intraperitoneal, 50 mg/kg once daily, day 1",body weight,27.7 ± 0.4 g

# Excerpt of the above:
SMILES,target or system,assay,test system,conditions,measurement,value
O=C(O)/C=C\c1ccc2occc2c1O[C@@H]1O[C@H](CO)[C@@H](O)[C@H](O)[C@H]1O,,post-procedure stability,rat plasma,"1000 ng/mL, 3 h, room temperature",accuracy,112%
CC(C)=CCC/C(C)=C\CCn1cc(CC(C)(P(=O)(O)O)P(=O)(O)O)nn1,,PAMPA,phosphate buffer,"5 µg/mL, 5 h, room temperature",Papp,0.054 ± 0.006 ×10⁻⁶ cm/s
